Results from different studies.
Protocols differ between the studies behind these lines. Values joined by “and” are separate records of one study, mostly repeats; a detail may differ.

Structure (SMILES)	assay	test system	setting	scale	measurement	value
C[C@H](Oc1ccc(Br)cc1-c1ccon1)C(=O)O	first response peak	human, tibialis anterior muscle	800 mg, 15 Hz, single ascending dose		difference from placebo	-4.13%
O=C(O)[C@H](O)[C@@H](O)[C@H](O)[C@H](O)COP(=O)(O)O	binding, MIDAS equilibrium dialysis LC-MS	A2AR-BRIL thermostabilized	concentration not given	relative to: no-protein control	log2 fold change	-0.167
Cc1cc([C@H]2C[C@H]3[C@@H](CF)SC(N)=N[C@@]3(c3ccc(F)cc3F)CO2)on1	item: Aβx-40	Mus musculus wild-type, cerebrospinal fluid	subcutaneous, 30 mg/kg, 14 h		Aβ40 level	1.11 ng/mL
OC(CCN1CCCCC1)(c1ccccc1)C1CC2C=CC1C2 (stereo not shown)	resting-state EEG	healthy elderly humans	oral, 4 mg, eyes closed, LS mean		gamma power, EEG, Pz-O1	0.8 µV²
N#Cc1ccc2c(c1)[C@H]1CCCN(C(=O)c3ccc4[nH]cnc4c3)[C@H]1C2		T2DM patients with overweight or obesity, urine	oral, 360 mg, day 1, 0-24 h, multiple dosing, adjusted geometric mean	relative to: baseline day -1, -24-0 h	total urinary corticosteroid excretion	200%
C[C@@H](O)[C@H](N)C(=O)O	binding, MIDAS equilibrium dialysis LC-MS	A2AR-BRIL thermostabilized	concentration not given	relative to: no-protein control	log2 fold change	-0.126
N#Cc1ccn2c(-c3ccncc3)c(-c3ccc(F)cc3)nc2c1	kinase binding, competitor, MIB/MS competition, item: PKH3	Candida albicans cell lysate	10 µM	relative to: DMSO	log2 fold change	-0.16
O=P(O)(O)C(Cl)(Cl)P(=O)(O)O	endothelial activation, immunostaining	mouse, SAH model, cortical capillaries	dose not given		VCAM-1 level	1.14 MFI and 3.52 MFI
Nc1ncnc2[nH]cnc12	binding, MIDAS equilibrium dialysis LC-MS	A2AR-BRIL thermostabilized	concentration not given	relative to: no-protein control	log2 fold change	0.785
O=C(O)CNC(=O)Cc1ccccc1		ventricular cardiomyocytes, C57BL/6 mouse	dose not given, 0.696 s		sarcomere length	1.72 µm
NC(=O)c1cnc2[nH]ccc2c1N[C@@H]1[C@@H]2CC3C[C@H]1C[C@@](O)(C3)C2	CD8+ naive T cells, flow cytometry	Japanese humans, peripheral blood	20 mg single dose	relative to: baseline	percent change	0.23%
Cc1ncc(CO)c(C(=O)O)c1O	binding, MIDAS equilibrium dialysis LC-MS	A2AR-BRIL thermostabilized	concentration not given	relative to: no-protein control	log2 fold change	-0.0142
CC(C)NCC(O)c1ccc(O)c(O)c1 (stereo not shown)		ventricular cardiomyocytes, C57BL/6 mouse	dose not given, 0.764 s		sarcomere length	1.72 µm

Some of these lines once more:
Structure (SMILES)	assay	test system	setting	scale	measurement	value
CC(C)NCC(O)c1ccc(O)c(O)c1 (stereo not shown)		ventricular cardiomyocytes, C57BL/6 mouse	dose not given, 0.764 s		sarcomere length	1.72 µm
